Results collected from several papers.
Each line is one published result; not all experiments were run side by side. ± gives the spread as reported.

With `Nc1nc2c(ncn2[C@H]2C[C@H](O)[C@@H](CO)/C2=C\F)c(=O)[nH]1` the EC50 was 0.9 nM (Hepatitis B virus; viral replication, inhibitor, qPCR; HepG2 2.2.15; 14 days).
The EC50 of `Nc1ncnc2c1ccn2[C@H]1C[C@H](O)[C@@H](CO)O1` is reported as over 64000 nM (Trypanosoma evansi; parasite growth, resazurin; AnTat 3.3; 48 h plus 24 h resazurin).
`O=c1c(O)cccc(SCc2ccccc2)c1O` has an EC50 of 25000 nM (Hepatitis B virus; viral replication, inhibitor; HepDES19).
For `COc1ccc(S(=O)(=O)NCc2c[nH]nc2-c2cccs2)cc1`, the EC50 was 182 nM (Plasmodium falciparum; liver stage multiplication; primary human hepatocytes, NF54 sporozoites; sporozoites preincubated with compound).
For `Nc1ncnc2c1c(Cl)cn2[C@@H]1O[C@H](CO)C[C@H]1O`, the EC50 was 1.8 ± 0.2 nM (Trypanosoma evansi; parasite growth, resazurin; AnTat 3.3; 48 h plus 24 h resazurin).
`C=C1[C@@H](n2cnc3c(=O)[nH]c(N)nc32)C[C@H](O)[C@@]1(C#N)CO` has an EC50 of 3.5 nM (Hepatitis B virus; viral replication, inhibitor, qPCR; HepG2 2.2.15; 14 days).
`O=c1c(O)cccc(Sc2cccc3ccccc23)c1O` gave an EC50 of over 50000 nM (Hepatitis B virus; viral replication, inhibitor; HepDES19).
The EC50 of `Cc1cc(C#N)cc(C)c1Oc1nc(NC2CCN(Cc3ccc(S(=O)(=O)NC4CC4)cc3)CC2)nc2ccccc12` is reported as 13.3 ± 3.62 nM (HIV-1; viral replication, luciferase reporter; TZM-bl, NL4-3 wild type).
With `Nc1ncnc2c1c(C(F)(F)F)cn2[C@@H]1O[C@H](CO)[C@@H](O)[C@H]1O` the EC50 was 670 ± 110 nM (Trypanosoma evansi; parasite growth, resazurin; AnTat 3.3; 48 h plus 24 h resazurin).
For `Cc1cc(/C=C/C#N)cc(C)c1Oc1nc(NC2CCN(Cc3ccc(C(N)=O)cc3)CC2)nc2ncccc12`, the EC50 was over 46.8 nM (HIV-1; viral replication, luciferase reporter; TZM-bl, NL4-3 wild type).
`Nc1ncnc2c1c(Br)cn2[C@H]1C[C@H](O)[C@@H](CO)O1` gave an EC50 of 1700 ± 500 nM (Trypanosoma evansi; parasite growth, resazurin; AnTat 3.3; 48 h plus 24 h resazurin).
`CCc1c(CC2CCCCC2)nc(SCC(=O)c2ccccc2)[nH]c1=O` gave an EC50 of 37.7 ± 23.1 nM (Human immunodeficiency virus 1; viral replication; TZM-bl, Ba-L).
`Nc1ncnc2c1ccn2[C@@H]1O[C@H](CO)C[C@H]1O` gave an EC50 of 17 ± 2 nM (Trypanosoma evansi; parasite growth, resazurin; AnTat 3.3; 48 h plus 24 h resazurin).
`CC[C@H](N[C@H](C)CC(N)=O)c1ccc(Cl)c(Oc2ccccc2)c1F`: EC50 “inactive” (Hepatitis C virus; viral replication, luciferase replicon; Huh-7 subgenomic replicon, genotype 1b; 72 h).
With `C#Cc1cn([C@@H]2O[C@H](CO)C[C@H]2O)c2ncnc(N)c12` the EC50 was 8 ± 2 nM (Trypanosoma evansi; parasite growth, resazurin; AnTat 3.3; 48 h plus 24 h resazurin).
`O=c1c(O)cccc(S(=O)(=O)c2ccccc2)c1O` gave an EC50 of 11300 nM (Hepatitis B virus; viral replication, inhibitor; HepDES19).
The EC50 of `CC[C@H](C)[C@@H]1NC(=O)[C@@H]2[C@H](CCN2C(=O)[C@@H](NC(=O)[C@@H](C)NC)[C@@H](C)CC)Oc2ccc(OC)c(c2)/C=C\NC1=O` is reported as 4490 ± 670 nM (porcine epidemic diarrhea virus; viral cytopathic effect; Vero cells; 72 h).
`O=c1c(O)c(S(=O)(=O)Cc2ccccc2)ccc(S(=O)(=O)Cc2ccccc2)c1O` has an EC50 of over 50000 nM (Hepatitis B virus; viral replication, inhibitor; HepDES19).
For `C[C@H]1[C@H](C)CC[C@]2(CO)CC[C@]3(C)C(=CC[C@@H]4[C@@]5(C)CCCNC(C)(C)[C@@H]5CC[C@]43C)[C@H]12`, the EC50 was over 6000 nM (Human alphaherpesvirus 1; cytopathic effect; HFF, E-377).
`CCCCCCS(=O)(=O)c1cccc(O)c(=O)c1O` gave an EC50 of 6600 nM (Hepatitis B virus; viral replication, inhibitor; HepDES19).
`CC1(C)CC[C@]2(CO)CC[C@]3(C)C(=CC[C@@H]4[C@@]5(C)CCCNC(C)(C)[C@@H]5CC[C@]43C)[C@@H]2C1` has an EC50 of over 1200 nM (Human alphaherpesvirus 1; cytopathic effect; HFF, E-377).
For `CCCCS(=O)(=O)c1ccc(S(=O)(=O)CCCC)c(O)c(=O)c1O`, the EC50 was over 50000 nM (Hepatitis B virus; viral replication, inhibitor; HepDES19).
`Cc1cc(C#N)cc(C)c1Oc1nc(NC2CCN(Cc3ccc(S(N)(=O)=O)cc3)CC2)nc2cccnc12` gave an EC50 of 5.33 ± 1.75 nM (HIV-1; viral replication, luciferase reporter; TZM-bl, NL4-3 wild type).
With `C=C(C)[C@@H]1CC[C@]2(C(=O)NC(CO)Cc3ccccc3)CC[C@]3(C)[C@H](CC[C@@H]4[C@@]5(C)CCCNC(C)(C)[C@@H]5CC[C@]43C)[C@@H]12` (stereo partly drawn) the EC50 was over 1200 nM (Human alphaherpesvirus 1; cytopathic effect; HFF, E-377).

Excerpt of the above:
With `Nc1ncnc2c1c(C(F)(F)F)cn2[C@@H]1O[C@H](CO)[C@@H](O)[C@H]1O` the EC50 was 670 ± 110 nM (Trypanosoma evansi; parasite growth, resazurin; AnTat 3.3; 48 h plus 24 h resazurin).
For `Cc1cc(/C=C/C#N)cc(C)c1Oc1nc(NC2CCN(Cc3ccc(C(N)=O)cc3)CC2)nc2ncccc12`, the EC50 was over 46.8 nM (HIV-1; viral replication, luciferase reporter; TZM-bl, NL4-3 wild type).
